Measurements gathered from unrelated publications.
Each numbered part is a random draw from the data of one study; scales do not carry over between parts.

Block 1
Target: Sal-like protein 4, full length isoform B (SALL4, Homo sapiens, UniProt Q9UJQ4-2, residues 1-616)
Technique: universal PBM
Form: double-stranded DNA, one strand shown
Medium: in vitro
Concentration: not given
Setting: 8-mer, flanks averaged, mean of replicates
Reading: higher = stronger binding
Target sequence (chain): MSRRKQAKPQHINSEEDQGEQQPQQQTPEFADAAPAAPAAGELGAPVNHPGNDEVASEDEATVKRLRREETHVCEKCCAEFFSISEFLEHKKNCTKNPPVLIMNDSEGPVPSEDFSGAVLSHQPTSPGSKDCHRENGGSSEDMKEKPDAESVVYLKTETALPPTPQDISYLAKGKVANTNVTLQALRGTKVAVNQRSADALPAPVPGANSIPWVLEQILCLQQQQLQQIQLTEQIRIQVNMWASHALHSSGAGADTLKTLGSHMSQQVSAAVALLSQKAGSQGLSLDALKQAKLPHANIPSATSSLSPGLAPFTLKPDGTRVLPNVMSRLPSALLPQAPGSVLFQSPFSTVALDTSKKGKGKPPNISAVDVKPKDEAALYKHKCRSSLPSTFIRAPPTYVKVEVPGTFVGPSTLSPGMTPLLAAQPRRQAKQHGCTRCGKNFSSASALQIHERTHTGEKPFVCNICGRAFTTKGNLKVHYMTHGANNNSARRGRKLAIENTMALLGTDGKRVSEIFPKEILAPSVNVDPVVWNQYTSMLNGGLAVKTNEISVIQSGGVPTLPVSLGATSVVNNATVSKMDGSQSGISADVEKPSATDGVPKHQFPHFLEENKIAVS
Strand | E-score
AGGACGTA | -0.0112
TCGAGAAA | 0.0934
CGCGTGAG | -0.08
GACTGTTA | 0.0731
CCGCCTTA | -0.157
GCTCGCAA | -0.116
AGGTACAA | 0.118
CTCCAGAA | -0.137
ATGAAGTG | 0.19
AGCAGGAA | 0.0418
AAGTGGAA | 0.18
AGGCCTCC | -0.204
CAATCGGG | -0.233
CAACCGAG | -0.174
CACTAAGC | -0.159
AGCCCTCC | -0.322
CAGACCAA | -0.0637
ATTACCTC | 0.116
CTACTTGA | -0.0205
GATCGGCA | -0.062
AGCCCAGA | -0.27
ATAGTAGA | 0.2
CGATAGAA | 0.0605
CCGCCAGA | -0.126
AACACCAA | 0.149

Block 2
Target: RNA binding protein fox-1 homolog 2, RRM domain, GST-SBP tag (RBFOX2, Homo sapiens, UniProt O43251-10, residues 100-194)
Technique: RNA Bind-n-Seq
Form: RNA
Medium: in vitro
Concentration: 365 nM
Setting: natural RNA segment, single round, ends assumed
Baseline: no-protein control
Reading: higher = stronger binding
Target sequence (chain): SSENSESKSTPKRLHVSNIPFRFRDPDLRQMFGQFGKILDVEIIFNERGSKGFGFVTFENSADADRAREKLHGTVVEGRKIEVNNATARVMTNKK
Strand | RBNS enrichment (R)
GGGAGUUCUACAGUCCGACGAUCAGGUUCCUAUCAGUCCAUAUAAACUCACUGACCAUAUGGUCAGCCUGGACCGGCCUUCUCAGAUGGCCGAAGCAGAUCCAACAUUAUCUUCCAUCUGUUUCCUUCCAUUUUGGAAUUCUCGGGUGCCAA | 0.189
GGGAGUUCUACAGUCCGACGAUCAUUCUAAAUUUAAAAAAUCUUCAAAUCUGAAUAUACCGCAAAUGUCAUGAGAAGUUUGAUUCAGUAACUUGUGAUGGAGGAUUCUUUGGUAUCUUACUGUUUGGUUAAGGUGGAAUUCUCGGGUGCCAA | 1.15
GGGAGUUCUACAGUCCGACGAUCUUCUGUCAGAUGCUACUCCAAAUGUUACCAGAACGAUGACAAAAGGGGAGACGCUCUAUUUUUUCACAGUUAAAUGACAGUUGUAGAUUGAUACGCAGUUGUGCAUGGGAUGGAAUUCUCGGGUGCCAA | 1.89
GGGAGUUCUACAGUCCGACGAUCGCAAACACCUUCUGAAUUGCCAGCGCCCGGGUUUUUAUGUAAAAAUAGAGUGGCUAUGGAAGUUACACCUUCAUCUGUGGGAAGUAUUCUCAAACGUAGGGGUAUCUUUAUGGAAUUCUCGGGUGCCAA | 0.532
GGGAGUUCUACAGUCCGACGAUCCACAGUGUCAGAGACGCGUCCUCUUUCUUGGGGAAGUUGAGGAGUGCCCUUCAGAGCCAGUAGCAGGCAGGGGUGGGUAGGCACCCUCCUUCCUGUUUUUAUCUAAUAAAUGGAAUUCUCGGGUGCCAA | 0.577
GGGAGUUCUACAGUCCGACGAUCCGUCUUGGUGCUGUGAAGCAUUAGGCCGACAACCGAGUCCACACCUGGUGACCAGGGCAGUAGGCGUAAUUAAGCAACAAUCGAUCUUCCUUCAGGAGAGCUUGUCACUUUGGAAUUCUCGGGUGCCAA | 0.211
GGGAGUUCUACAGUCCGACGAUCUGAAGAGGACAAAUAGUUUAUUUAAAGCAUUUGUUCCAAUAAAAUAAAUAGAGGGAAACUUGGAUGCUAAAAUUACAUGAAUAGGAAUCUUCCUGGCACUUAGUGUUUCUUGGAAUUCUCGGGUGCCAA | 0.359
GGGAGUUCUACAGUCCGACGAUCCGAAAGGGGCAAGGGCUAAGGCAGAUGAUAAUCUGAAGCUAGAUUAAACAGUCUAGGUGCUCCUAACAACCACCCCCUGCCCGGGCCUCUCCUUUGUGAGCCACAGUUGUUGGAAUUCUCGGGUGCCAA | 0.243
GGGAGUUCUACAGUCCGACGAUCUUUUCUACUUGUGUGUCUGGGGGAAUGAACGCACAGAUCUGUUUGACUUUGUUAUAAAAAUAGGGCUCCCCCACCUCCCCCAUUUCUGUGUCCUUUAUUGUAGCAUUGCUUGGAAUUCUCGGGUGCCAA | 1.13
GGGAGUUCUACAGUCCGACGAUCUUGAGCUGGGACUGGCUUGGGGCUUAGAACCAAGAACAGGUAGAAAAUUCCUUAAACAAAGCAUUCCUACAGCGUUUUGCUGGGUGAGAGGAAUCAAACUGGUUCCCUUUUGGAAUUCUCGGGUGCCAA | 0.414
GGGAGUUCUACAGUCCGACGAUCUGUGAGAAGUCACUCACACUGGCCACAAGGACGCUGGCUACUGUCUAUUAAAAUUCUGAUGUUUCUGUGAAAUUCUCAGAGUGUUUAAUUGUACUCAAUGGUAUCAUUACUGGAAUUCUCGGGUGCCAA | 0.217
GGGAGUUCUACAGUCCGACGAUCGGUUUAGUGCUUUUUUAAAGGAAAGUUGUCCCAGGAUUCAUCCUAAAGAAAGCAAAAGUUAAUUCAACUGAUCCACCAAUGGAAUUAGAUGGGUAGAGUUGGGUUCUUGAUGGAAUUCUCGGGUGCCAA | 0.455

Block 3
Target: RING finger protein unkempt homolog, zinc fingers 1-6, GST-SBP tag (UNK, Homo sapiens, UniProt Q9C0B0, residues 30-357)
Chain of UniProt Q9C0B0 (30-357, looked up): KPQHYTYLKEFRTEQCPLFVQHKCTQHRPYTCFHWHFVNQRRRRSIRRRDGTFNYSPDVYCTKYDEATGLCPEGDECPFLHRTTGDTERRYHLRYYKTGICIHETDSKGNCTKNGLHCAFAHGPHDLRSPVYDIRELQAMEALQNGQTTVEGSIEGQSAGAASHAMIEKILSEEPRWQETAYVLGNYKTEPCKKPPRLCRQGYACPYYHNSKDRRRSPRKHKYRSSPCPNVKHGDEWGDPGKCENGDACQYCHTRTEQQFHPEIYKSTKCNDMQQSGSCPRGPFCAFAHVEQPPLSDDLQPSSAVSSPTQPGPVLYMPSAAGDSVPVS
Technique: RNA Bind-n-Seq
Form: RNA
Medium: in vitro
Concentration: not given
Setting: RNA with constant flanks, human and mouse sites, ends assumed
Baseline: input RNA pool
Reading: higher = stronger binding
Strand | bound/input enrichment [ratio]
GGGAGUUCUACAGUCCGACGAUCUGCUCAAGACAGCUAUUUGGAUGGCUCUUUUGCAAAGUACAUCCUGGUGCUAUUGUGUUUGCUAUAUUAGCAGCAAUGUCAAUACAAGGUUCAGCAAAUCUGCAAACCCAGUGGAAUAUUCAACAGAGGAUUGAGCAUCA | 0.154
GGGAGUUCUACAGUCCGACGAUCGCCAUUGACUAUGAGUCGUUCUAUGUUUACGCACAGCUGCCUGUCACCCCAGAUGUCCUCAUCAUCCCGUCAGAGCUGAGGUACUUCGUGAAGGAUGUCCUCGGCUGUGUCUGUGUGAACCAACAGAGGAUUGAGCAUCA | 0.112
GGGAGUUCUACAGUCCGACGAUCUGGUAUCUCUUCUUAGUGUUCUAUUUAUCUUAUUUGCUAAUGAGAACAAUUCUUCUUCUGUUAGGCUGUGCUUUAUUGAUAAAACCAAGUAUUGAAUAAAGAGAGUUAAUUAUCUUUUUACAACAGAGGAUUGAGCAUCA | 1.52
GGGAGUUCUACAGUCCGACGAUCCGUGGAGAUACAGACCAGGCCAGUAAUAUUUUGGCCAGCUUUGGUCUGUCUGCUAGAGACUUAGAUGAACUGAGUCGCUAUCCAGAGGACAAGAUUACUCCUGAGAACUUGCCCCAAAUUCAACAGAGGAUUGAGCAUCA | 0.122
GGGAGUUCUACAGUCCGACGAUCAAGGAGAACAGUUCUUGCGGCAGAUUUGAUAUAACAAUUGGACCAAAGCAGAAUAUGGGGAAAACUAUUGAAGGAAUUACAGUGACAGUUCACAUGCCAAAAGUUGUGCUGAACAUGAACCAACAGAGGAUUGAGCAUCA | 0.308
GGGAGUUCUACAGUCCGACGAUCGGUUGCAGGUGUGUUGAACUUGACUGUUGGGAUGGAAAAGGUGAAGAUCAGGAACCGAUAAUAACUCACGGAAAAGCAAUGUGUACAGACAUCCUUUUUAAGGAUGUAAUCCAGGCCAUCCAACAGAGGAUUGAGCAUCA | 0.196
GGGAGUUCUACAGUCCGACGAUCUAUAGCACUGAAUAAAUGAUGCAAGUUGUCAAUGGAUGAGUGAUCAACUAAUAGCUCUGCUAGUAAUUGAUUUAUUUUUCUUCAAUAAAGUUGCAUAAACCAAUGAGUUAGCUGCCUGGACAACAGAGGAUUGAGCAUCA | 0.721
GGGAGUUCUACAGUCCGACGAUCUCCUAAUACUCCACAUUCAAACUGAAGAGGAAAAUUGAAAUCUCUAAUGAAGCUGCUGUGUGUAUUUAUGAAUAUUAAUGAAUAAAAACUGCUUGGAUGGUUUACCUUAACUACUGCAUGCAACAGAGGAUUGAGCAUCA | 0.748
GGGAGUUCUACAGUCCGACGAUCUAUUUCAGGGCCAUGUUUAUGAGUGGACUAAGUGAAAGCAAACAAACCCAUGUACACCUGAGGAAUGUCGAUGCUGCCACCUUACAGAUAAUAAUAACUUAUGCAUACACGGGUAACUUGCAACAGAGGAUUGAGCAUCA | 0.27
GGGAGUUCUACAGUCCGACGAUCAACCUCUGCAAGCUCAUGAAAGAAAUCUUAGAUAAGAAGGUUGAGAAGGUGACAAUCUCCAAUAGACUUGUGUCUUCACCUUGCUGCAUUGUGACCAGCACCUACGGCUGGACAGCCAAUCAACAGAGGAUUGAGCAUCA | 0.278
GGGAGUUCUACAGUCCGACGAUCUCCCAGUCUAUUGUUUGGGUGCAUGCUUUCCCAGAACUGUUUUUGUCUUGCUUAAAUCAUCCGGACAAAAAAAUUGUUGCCUACUCUUCAAUGAUUUUGUUUACAUCCCUUAAUCAUGAACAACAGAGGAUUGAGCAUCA | 0.194

Block 4
Target: Histone acetyltransferase KAT6A, winged helix 1, GST fusion (KAT6A, Homo sapiens, UniProt Q92794, residues 1-85)
Technique: protein binding microarray
Form: double-stranded DNA, one strand shown
Medium: in vitro
Concentration: not given
Setting: 8-mer, flanks averaged, mean of 2 arrays, mostly near background
Baseline: not given
Reading: higher = stronger binding
Target sequence (chain): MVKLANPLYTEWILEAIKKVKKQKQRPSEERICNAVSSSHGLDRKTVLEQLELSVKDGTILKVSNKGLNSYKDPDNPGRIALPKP
Strand | E-score
GCCTTCAC | 0.12
TGACTACA | -0.147
CTGGTAAG | -0.204
AACTGTGG | -0.0684
CGACGCTA | 0.343
ACATCGAT | -0.147
AACTATAG | -0.0901
GAATCGAC | -0.0635
AGCATAGC | -0.0414
ATACGGTC | 0.192
ACCTGACG | -0.00666
AGACGCTC | 0.122
AGTCTGGC | -0.219
AGCTCCGA | -0.00766
CTTCCAAC | -0.0826
AGGTCGCG | 0.17
AAAATCTG | -0.25
CCTCGGAA | 0.0284
AAGCTTAT | -0.0464

Repeated from above (block 4):
Strand | E-score
AACTATAG | -0.0901
ACATCGAT | -0.147
CCTCGGAA | 0.0284
AGCTCCGA | -0.00766
AGGTCGCG | 0.17
ACCTGACG | -0.00666
CGACGCTA | 0.343
AACTGTGG | -0.0684
CTGGTAAG | -0.204
